Measurements gathered from unrelated publications.
Lines come from different studies, so protocols differ. Several values in a cell are separate wells, animals, samples, runs or records. ± gives the spread as reported.

| Structure (SMILES) | target or system | assay | system | setting | scale | measurement | result |
| --- | --- | --- | --- | --- | --- | --- | --- |
| Cc1[nH]c(/C=C2\C(=O)Nc3ccc(F)cc32)c(C)c1C(=O)NC[C@H](O)CN1CCOCC1 | iCell Cardiomyocytes (hiPSC-derived) | cellular impedance | – | concentration not given, 24 h | baseline: control | cell index | 106% |
| CCc1cnc(N2CCC(c3nc(COc4ccc(-n5cnnn5)cc4)cs3)CC2)nc1 | HEK-293T | RNA-seq GSEA, refers to: HALLMARK_COMPLEMENT | – | concentration not given | direction not given | normalized enrichment score | -0.871 |
| CC(C)(C)c1cc(NC(=O)Nc2ccc(-c3cn4c(n3)sc3cc(OCCN5CCOCC5)ccc34)cc2)no1 | iCell Cardiomyocytes (hiPSC-derived) | CellTiter-Glo | – | concentration not given, 24 h | baseline: control | ATP level | 104% |
| NC(N)=NN=C(C=Cc1ccc([N+](=O)[O-])o1)C=Cc1ccc([N+](=O)[O-])o1 | ARPE-19 HiBiT fibulin-3 | HiBiT luminescence | – | 5 µM | – | fibulin-3 level | -69.6% |
| Cn1c(Nc2ccc(C(F)(F)F)cc2)nc2cc(Oc3ccnc(-c4ncc(C(F)(F)F)[nH]4)c3)ccc21 | iCell Cardiomyocytes (hiPSC-derived) | CellTiter-Glo | – | concentration not given, 24 h | baseline: control | ATP level | 96.3% |
| Nc1cccc2c1C(=O)N(C1CCC(=O)NC1=O)C2=O (stereo not drawn) | bone marrow CD138+ myeloma cells | XTT | – | 1 µM, phenol red-free RPMI | – | viability | 80% |
| Cn1cc(-c2ccc(F)c(C(F)(F)F)c2)nc1C1CCN(c2ncnc3[nH]ncc23)CC1 | SK-OV-3 | ATP | – | 1 µM, 4 days, 3D U-bottom low-attachment | baseline: untreated | relative cell number | 118% |
| CNC(=O)c1ccccc1Sc1ccc2c(/C=C/c3ccccn3)n[nH]c2c1 | iCell Cardiomyocytes (hiPSC-derived) | cellular impedance | – | concentration not given, 24 h | baseline: control | cell index | 102% |
| CCCCCCNC(=O)n1cc(F)c(=O)[nH]c1=O | SW-403 | LC-MS, refers to: Cer(d18:1/18:0) | – | 10 µM | – | ceramide level | 1 ± 0.19 pmol/mg protein |
| CCCCc1nc(Cl)c(CO)n1Cc1ccc(-c2ccccc2-c2nn[nH]n2)cc1 | human PBMC | RNA-seq, refers to: DLL1 mRNA | – | 10 µg/mL, 24 h | baseline: untreated control | log2 fold change | 1.5 |
| CC#CC(=O)N1CCC[C@H]1c1nc(-c2ccc(C(=O)Nc3ccccn3)cc2)c2c(N)nccn12 | Ramos | calcium flux, FLIPR | – | 4 h preincubation | – | IC50 | 0.0066 µM |
| CC(=O)c1c(C)c2cnc(Nc3ccc(N4CCNCC4)cn3)nc2n(C2CCCC2)c1=O | MCF7/luciferase, wild type | cell proliferation | – | – | – | maximum inhibition | 73.5% |
| CC/C(=N\NC(=O)NCc1cccc(O)c1)c1ccc(O)c(C)c1O | SK-OV-3 | gene expression, microarray, refers to: IDO1 | – | 10 µM, 24 h | baseline: DMSO | log ratio | -3.83 |
| C=Cc1c2[n-]c(c1C)/C=c1\[n-]/c(c(C)c1C=C)=C\c1[n-]c(c(CCC(=O)O)c1C)/C=c1\[n-]c(c(C)c1CCC(=O)O)=C2.[Sn+4] | SH-SY5Y | RNA-seq, refers to: ITGA2 mRNA | – | 5 µM, 5 h | baseline: untreated cells | fold change | 2.49 |
| Cn1cc(Nc2nccc(-c3ccc4c(c3)CN(C3COC3)CC[C@H]4NC(=O)c3cn(C(C)(C)C)nn3)n2)cn1 | mouse splenic B cells | refers to: CNTF signalling | – | 30 mg/kg, IgD-activated in vivo | baseline: vehicle, direction not given | pathway activation z-score | 2.33 |
| [Cl-].[Cl-].[Os+2].c1cnc2c(c1)ccc1cccnc12.c1cnc2c(c1)ccc1cccnc12.c1cnc2c(c1)ccc1cccnc12 | SK-MEL-28 | cell growth, SRB | – | cool white visible light, normoxia | – | TGI | 13.5 µM |
| COc1ccc(C[C@H](N)C(=O)N[C@H]2[C@@H](O)[C@H](n3cnc4c(N(C)C)ncnc43)O[C@@H]2CO)cc1 | HEK293 | protein secretion | – | concentration not given, unit not given | baseline: mock | secreted Gaussia luciferase | 0.115 |
| C[C@]12CCCN1CC1=NNC(=O)c3cc(F)cc4[nH]c2c1c34 | AGS gastric cancer cells | cell viability | – | concentration not given, together with: with temozolomide | – | EC50 | > 10 µM |
| CCCCN1CCN(c2ccc3[nH]c(-c4ccc5[nH]c(-c6cc(OC)c(OC)c(OC)c6)nc5c4)nc3c2)CC1 | NCI/ADR-RES | cell growth, NCI-60 SRB | – | 10 µM, 48 h | – | growth percent | 102% |
| c1cnc2c(c1)ccc1cccnc12 | differentiated THP-1 | – | – | 25 µg/mL | baseline: untreated | TNF-α mRNA level | decreased |
| Clc1ccc(C2(c3ccc(-c4cn[nH]c4)cc3)CCNCC2)cc1 | SK-OV-3 | ATP | 2D monolayer culture | 1 µM, 4 days | baseline: untreated | relative cell number | 55.8% |
| C[C@H]1CN(C2COC2)CCN1c1ccc(Nc2cc(-c3ccnc(N4CCn5c(cc6c5CC(C)(C)C6)C4=O)c3CO)cn(C)c2=O)nc1 | TMD8 RAC2 knockout | calcium flux, FLIPR | – | 4 h preincubation | – | IC50 | 0.0025 µM |
| CC(C)(C)c1cnc(CSc2cnc(NC(=O)C3CCNCC3)s2)o1 | iCell Cardiomyocytes (hiPSC-derived) | xCELLigence Cardio impedance | – | concentration not given, 2 h | baseline: control | beat rate | 102% |

| Structure (SMILES) | target or system | assay | system | setting | scale | measurement | result |
| --- | --- | --- | --- | --- | --- | --- | --- |
| CC1(C)COc2ccc(F)cc2CN2c3nc4c(cnn4cc3OC[C@H]2C(F)F)C(=O)N1 | KARPAS-299 (NPM1-ALK) | cell viability | – | – | – | Emax | 73.4% |
| C=CC(=O)N1CCC[C@@H](n2nc(-c3ccc(Oc4ccccc4)cc3)c3c(N)ncnc32)C1 | Ramos | calcium flux, FLIPR | – | 2 h preincubation | – | maximum inhibition | 84.4% |
| C=CC(=O)N1CCC(COCC(=O)N2CCN(c3nc(-c4cnc(N)nc4C(F)F)nc(N4CCOC[C@@H]4C)n3)CC2)CC1 | SK-OV-3 | resazurin growth rate inhibition | – | 72 h | – | GR50 | 75.9 nM |
| CCn1c(-c2nonc2N)nc2c(C#CC(C)(C)O)ncc(OC[C@H]3CCCNC3)c21 | iCell Cardiomyocytes (hiPSC-derived) | xCELLigence Cardio impedance | – | concentration not given, 2 h | baseline: control | beat rate | 84.9% |
| COc1cc([C@@H](CC(=O)O)c2ccc(C)c(CN3C[C@@H](C)Oc4ccccc4S3(=O)=O)c2)cc2nnn(C)c12 | KRAS wild-type lung cancer cells | MTT | – | concentration not given, 48 h, 2D culture, single agent | – | cell viability | no effect |
| Cc1cccc(C)c1NC(=S)N/N=C/c1ccc(N2CCC(O)CC2)cc1 | BEAS-2B and A549 | MTT | – | – | baseline: IC50 BEAS-2B over IC50 A549 | selectivity ratio | 8.1 |
| Cc1cccc(-c2[nH]c(CNc3ccccc3F)nc2-c2ccc3ncnn3c2)n1 | RPMI-8226 | flow cytometry, refers to: CD27 | – | concentration not given | baseline: comparator compound alone | surface marker level | 50.3% |
| CCn1c(-c2nonc2N)nc2cncc(CNC3CCNCC3)c21 | SK-OV-3 | ATP | – | 0.1 µM, 4 days, 3D gellan gum culture | baseline: untreated | relative cell number | 88.4% |
| O=C(O)CO | – | binding, equilibrium dialysis LC-MS | – | 5 µM, thermostabilized A2AR-BRIL construct | baseline: no-protein control, direction not given | z-scored log2 fold change | -0.209 |
| COc1cc2ncnc(Cc3ccc4cnn(C)c4c3)c2cc1OC | A549 | mitochondrial oxygen consumption, Seahorse XF96 | – | 10 µM | – | inhibition | 24% |
| Cc1cc(Nc2ncc(Cl)c(Nc3ccccc3S(=O)(=O)C(C)C)n2)c(OC(C)C)cc1C1CCNCC1 | Ba/F3 EML4-ALK variant 1 E1210K | cell viability | – | – | – | Emax | 99.9% |
| C=C(c1ccc(OC)cc1)[C@@H]1c2cc(Oc3cc(C[C@H]4c5cc(OC)c(OC)cc5CCN4C)ccc3O)c(OC)cc2CCN1C | 3T3-L1 | adipocyte lipid accumulation, Nile Red staining | – | 15 µM | – | inhibition | 39.5 ± 0.6% |
| Cc1nc(NC(=O)N2CCC[C@H]2C(N)=O)sc1-c1ccnc(C(C)(C)C(F)(F)F)c1 | Detroit 562 | CellTiter-Glo | – | 120 h | – | Hill coefficient GR curve | 1.06 |
| Nc1ccn([C@H]2C[C@H](O)[C@@H](COP(=O)(O)O)O2)c(=O)n1 | – | binding, equilibrium dialysis LC-MS | – | 5 µM, thermostabilized A2AR-BRIL construct | baseline: no-protein control, direction not given | z-scored log2 fold change | 0.679 |
| CCn1cc(-c2cc(Cn3ccnc3)cc3c2CCN([C@H](c2cc(OC)ccn2)C2CC2)C3=O)c(C(F)(F)F)n1 | SKMEL31 | cell growth | – | 120 h | – | EC50 | > 30 µM |
| Nc1ncnc2c1ncn2[C@@H]1O[C@H](CO)[C@@H](O)[C@H]1O | activated human T cells | – | – | 50 µM, unit not given | baseline: DMSO | orotate level | 9.6 and 8.5 and 12 and 8 and 9.5 |
| CC(C)NCC(O)c1ccc(O)c(O)c1 (stereo not drawn) | mouse ventricular cardiomyocytes | – | – | dose not given, 0.383 s | – | sarcomere length | 1.8 µm |
| Cc1ccc(F)c(NC(=O)Nc2ccc(-c3cccc4[nH]nc(N)c34)cc2)c1 | iCell Cardiomyocytes (hiPSC-derived) | xCELLigence Cardio impedance | – | concentration not given, 2 h | baseline: control | beat rate | 94.1% |
| O=C(/C=C/C=C/C=C/C1CCCCC1)NC1=C[C@@](O)(/C=C/C=C/C=C/C(=O)NC2=C(O)CCC2=O)[C@@H]2O[C@@H]2C1=O | CAKI-2 | cell growth, CellTiter-Glo | – | 78 h | – | GI50 | 18.4 µM |
| COc1ccc(Cc2nccc3cc(OC)c(OC)cc23)cc1 | A549 | mitochondrial oxygen consumption, Seahorse XF96 | – | 10 µM | – | inhibition | 18% |
| O=C(O)c1ccc(Nc2ncc3c(n2)-c2ccc(Cl)cc2C(c2c(F)cccc2F)=NC3)cc1 | iCell Cardiomyocytes (hiPSC-derived) | xCELLigence Cardio impedance | – | concentration not given, 2 h | baseline: control | beat rate | 102% |
| OCc1nc2ccc(NCc3ccc(OC(F)(F)F)cc3)cc2[nH]1 | sample A patient iPSC NPCs | cell protection, MTS | – | up to 100 µM, 24 h | – | Emax | 31% |
